Results of several laboratories.
Lines come from different studies, so protocols differ. ± marks the error that the study gave.
HDAC2: Histone deacetylase 2 (HDAC2, Homo sapiens, UniProt Q92769)
Sequence of UniProt Q92769 (whole entry, looked up): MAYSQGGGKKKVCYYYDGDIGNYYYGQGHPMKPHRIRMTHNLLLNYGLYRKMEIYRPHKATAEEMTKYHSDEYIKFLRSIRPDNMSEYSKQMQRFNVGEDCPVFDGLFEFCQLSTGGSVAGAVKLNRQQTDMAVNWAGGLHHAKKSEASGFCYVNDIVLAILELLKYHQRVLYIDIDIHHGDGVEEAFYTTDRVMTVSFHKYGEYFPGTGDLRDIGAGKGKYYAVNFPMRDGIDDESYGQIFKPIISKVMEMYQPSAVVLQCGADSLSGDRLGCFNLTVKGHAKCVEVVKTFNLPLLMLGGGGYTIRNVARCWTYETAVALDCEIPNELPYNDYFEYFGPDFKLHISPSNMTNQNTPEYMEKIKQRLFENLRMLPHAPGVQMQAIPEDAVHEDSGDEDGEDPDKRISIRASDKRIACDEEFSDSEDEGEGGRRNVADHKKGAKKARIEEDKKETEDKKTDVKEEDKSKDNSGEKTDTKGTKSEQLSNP
Sequence of UniProt P03303 (whole entry, looked up): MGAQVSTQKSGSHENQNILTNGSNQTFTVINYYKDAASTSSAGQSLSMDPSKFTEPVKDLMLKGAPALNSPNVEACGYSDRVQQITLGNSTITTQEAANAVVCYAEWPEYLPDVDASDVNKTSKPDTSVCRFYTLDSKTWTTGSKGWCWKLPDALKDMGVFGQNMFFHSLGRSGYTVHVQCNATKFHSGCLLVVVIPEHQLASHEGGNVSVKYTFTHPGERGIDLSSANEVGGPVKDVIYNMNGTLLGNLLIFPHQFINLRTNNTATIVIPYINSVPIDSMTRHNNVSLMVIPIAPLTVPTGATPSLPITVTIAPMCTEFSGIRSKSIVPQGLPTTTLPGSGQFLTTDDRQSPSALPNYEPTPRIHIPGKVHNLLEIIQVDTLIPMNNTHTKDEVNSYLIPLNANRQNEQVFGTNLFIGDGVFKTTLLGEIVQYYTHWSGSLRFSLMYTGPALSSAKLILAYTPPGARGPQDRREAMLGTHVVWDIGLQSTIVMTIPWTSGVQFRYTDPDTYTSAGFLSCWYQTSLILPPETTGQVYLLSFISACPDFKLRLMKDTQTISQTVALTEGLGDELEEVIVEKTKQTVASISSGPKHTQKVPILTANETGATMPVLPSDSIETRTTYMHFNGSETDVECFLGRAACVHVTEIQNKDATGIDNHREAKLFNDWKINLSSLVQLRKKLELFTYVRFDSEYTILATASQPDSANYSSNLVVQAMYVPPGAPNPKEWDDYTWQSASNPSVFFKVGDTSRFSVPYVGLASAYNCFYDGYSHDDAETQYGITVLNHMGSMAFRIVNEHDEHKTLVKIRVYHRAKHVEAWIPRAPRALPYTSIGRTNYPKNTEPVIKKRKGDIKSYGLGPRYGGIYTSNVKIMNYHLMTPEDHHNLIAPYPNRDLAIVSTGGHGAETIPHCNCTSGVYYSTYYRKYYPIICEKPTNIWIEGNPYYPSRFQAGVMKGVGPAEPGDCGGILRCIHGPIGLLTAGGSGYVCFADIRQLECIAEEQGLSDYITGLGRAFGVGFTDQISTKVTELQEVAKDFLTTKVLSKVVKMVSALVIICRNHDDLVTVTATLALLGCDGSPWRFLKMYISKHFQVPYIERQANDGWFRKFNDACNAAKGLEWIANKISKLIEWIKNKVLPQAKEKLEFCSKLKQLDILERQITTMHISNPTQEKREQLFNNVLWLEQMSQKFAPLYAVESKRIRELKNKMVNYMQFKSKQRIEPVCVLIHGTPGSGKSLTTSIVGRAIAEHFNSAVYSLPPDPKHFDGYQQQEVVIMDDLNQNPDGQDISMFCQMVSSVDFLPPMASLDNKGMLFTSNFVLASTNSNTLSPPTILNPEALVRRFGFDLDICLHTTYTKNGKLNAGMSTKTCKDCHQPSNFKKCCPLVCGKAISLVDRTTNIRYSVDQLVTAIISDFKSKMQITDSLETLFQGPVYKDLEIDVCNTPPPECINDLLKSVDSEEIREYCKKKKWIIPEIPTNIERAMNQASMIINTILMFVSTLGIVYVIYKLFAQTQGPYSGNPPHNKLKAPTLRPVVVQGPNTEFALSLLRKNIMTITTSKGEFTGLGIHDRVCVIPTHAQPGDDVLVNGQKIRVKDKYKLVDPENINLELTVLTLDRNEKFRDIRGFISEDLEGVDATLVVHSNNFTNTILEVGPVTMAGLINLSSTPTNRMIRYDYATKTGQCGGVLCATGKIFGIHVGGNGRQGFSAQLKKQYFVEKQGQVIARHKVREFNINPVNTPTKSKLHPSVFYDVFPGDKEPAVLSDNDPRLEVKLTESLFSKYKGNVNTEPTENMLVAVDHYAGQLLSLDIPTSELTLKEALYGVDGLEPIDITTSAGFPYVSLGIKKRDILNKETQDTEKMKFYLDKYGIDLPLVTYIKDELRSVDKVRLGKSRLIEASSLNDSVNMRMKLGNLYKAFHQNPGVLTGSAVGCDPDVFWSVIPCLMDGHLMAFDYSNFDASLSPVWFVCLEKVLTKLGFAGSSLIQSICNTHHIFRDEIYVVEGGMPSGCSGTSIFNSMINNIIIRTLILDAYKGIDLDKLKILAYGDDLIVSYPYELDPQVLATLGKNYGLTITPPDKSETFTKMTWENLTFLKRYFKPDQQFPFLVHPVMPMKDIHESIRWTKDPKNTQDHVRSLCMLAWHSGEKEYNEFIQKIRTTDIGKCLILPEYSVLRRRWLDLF
Sequence of UniProt P97612 (whole entry, looked up): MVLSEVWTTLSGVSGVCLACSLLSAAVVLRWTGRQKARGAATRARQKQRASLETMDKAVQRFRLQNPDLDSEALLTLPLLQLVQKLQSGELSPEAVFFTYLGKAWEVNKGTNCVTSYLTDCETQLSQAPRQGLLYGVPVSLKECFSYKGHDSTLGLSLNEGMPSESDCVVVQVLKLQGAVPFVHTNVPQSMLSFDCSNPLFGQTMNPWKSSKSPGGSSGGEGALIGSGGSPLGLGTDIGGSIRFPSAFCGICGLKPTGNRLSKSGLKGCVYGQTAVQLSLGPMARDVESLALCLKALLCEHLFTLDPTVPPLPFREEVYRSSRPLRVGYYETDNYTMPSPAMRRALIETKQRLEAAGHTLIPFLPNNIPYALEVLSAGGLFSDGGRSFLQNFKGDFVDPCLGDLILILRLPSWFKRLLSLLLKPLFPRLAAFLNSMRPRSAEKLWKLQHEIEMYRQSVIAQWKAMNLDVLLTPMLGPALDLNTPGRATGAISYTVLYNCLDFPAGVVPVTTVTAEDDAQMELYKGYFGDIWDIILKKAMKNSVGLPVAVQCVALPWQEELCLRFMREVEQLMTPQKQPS
Sequence of UniProt P00441 (whole entry, looked up): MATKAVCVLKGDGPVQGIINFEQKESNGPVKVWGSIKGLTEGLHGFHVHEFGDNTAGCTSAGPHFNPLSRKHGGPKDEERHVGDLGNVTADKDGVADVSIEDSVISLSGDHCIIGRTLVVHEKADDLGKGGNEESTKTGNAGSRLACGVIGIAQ
Sequence of UniProt C7FF04 (whole entry, looked up): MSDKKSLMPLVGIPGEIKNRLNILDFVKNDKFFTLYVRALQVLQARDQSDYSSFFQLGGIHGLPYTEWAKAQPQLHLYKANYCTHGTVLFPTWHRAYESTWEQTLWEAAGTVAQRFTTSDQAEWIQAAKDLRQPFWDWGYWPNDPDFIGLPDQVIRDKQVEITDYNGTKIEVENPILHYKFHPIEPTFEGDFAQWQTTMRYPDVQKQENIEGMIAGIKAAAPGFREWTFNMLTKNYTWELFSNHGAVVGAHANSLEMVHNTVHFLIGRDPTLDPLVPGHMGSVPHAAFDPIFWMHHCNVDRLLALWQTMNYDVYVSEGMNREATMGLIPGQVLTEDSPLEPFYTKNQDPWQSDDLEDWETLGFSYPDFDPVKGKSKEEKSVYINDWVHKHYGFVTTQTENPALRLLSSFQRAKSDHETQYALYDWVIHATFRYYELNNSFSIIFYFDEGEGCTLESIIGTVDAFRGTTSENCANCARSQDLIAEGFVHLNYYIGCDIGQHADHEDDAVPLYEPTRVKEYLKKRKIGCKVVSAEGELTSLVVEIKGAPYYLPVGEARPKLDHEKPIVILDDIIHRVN
Sequence of UniProt P20618 (whole entry, looked up): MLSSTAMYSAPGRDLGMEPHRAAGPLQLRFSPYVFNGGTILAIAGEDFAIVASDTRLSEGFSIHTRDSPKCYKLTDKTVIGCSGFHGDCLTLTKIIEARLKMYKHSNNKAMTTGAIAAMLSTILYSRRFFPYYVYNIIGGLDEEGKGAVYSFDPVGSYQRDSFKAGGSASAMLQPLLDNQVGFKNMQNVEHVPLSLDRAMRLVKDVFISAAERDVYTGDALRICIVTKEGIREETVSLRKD
Sequence of UniProt P28074 (whole entry, looked up): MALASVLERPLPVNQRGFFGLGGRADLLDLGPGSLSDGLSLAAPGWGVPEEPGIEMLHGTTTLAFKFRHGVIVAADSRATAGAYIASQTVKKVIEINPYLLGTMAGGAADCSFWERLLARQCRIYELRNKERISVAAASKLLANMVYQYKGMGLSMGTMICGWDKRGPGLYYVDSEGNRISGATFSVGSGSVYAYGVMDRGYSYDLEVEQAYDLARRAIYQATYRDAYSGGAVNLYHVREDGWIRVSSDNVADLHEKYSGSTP

SMILES	target	test	test system	setting	IC50
CCCCCC1CC(=O)N[C@@H](CO)C(=O)N[C@@H](Cc2ccccc2)C(=O)N[C@@H](Cc2ccc(O)cc2)C(=O)N[C@H](CCCNC(N)=O)C(=O)N[C@@H](CC(=O)O)C(=O)O1 (stereo partly shown)	Proteasome component C5/PSMB5 (Homo sapiens, UniProt P20618+P28074)	enzyme activity, inhibitor	–	–	> 50 µM
CC[C@H](C)[C@@H]1NC(=O)[C@H](Cc2ccccc2)NC(=O)[C@H](C)NC(=O)[C@@H](NC(=O)[C@@H](NC(=O)[C@H](CO)NC(=O)[C@@H](N)Cc2ccc(O)cc2)[C@@H](C)O)CSC(=O)[C@H](CCSC)NC1=O	accessory gene regulator protein C (Staphylococcus aureus, UniProt O33587)	–	–	–	0.000613 µM
CCc1cccc2c(C(=O)NC3CCN(C(=O)C(C)C)CC3)c[nH]c12	Genome polyprotein, 3C protease (rhinovirus B14, UniProt P03303)	3C protease activity, SAMDI-MS	human rhinovirus	–	28.5 µM
O=C(Nc1ccccc1)c1ccccc1O	HDAC2	enzyme activity, inhibitor, fluorescence	–	–	> 10 µM
CC(C)C[C@H](NC(=O)[C@H](CC(N)=O)NC(=O)[C@H](CCC(=O)O)NC(=O)[C@@H](N)CS)C(=O)O	PPO3 (Agaricus bisporus, UniProt C7FF04)	enzyme activity, inhibitor	–	–	151 µM
C[C@@H](NC(=O)[C@@H](N)Cc1ccc(O)cc1)C(=O)NCC(=O)N[C@@H](Cc1ccc(F)cc1)C(=O)Nc1ccccc1NC(=O)[C@H](Cc1ccc(F)cc1)NC(=O)CNC(=O)[C@@H](C)NC(=O)[C@@H](N)Cc1ccc(O)cc1	delta opioid receptor, mouse	vas deferens contraction, agonist	mouse vas deferens	–	0.00066 ± 0.00017 µM
CC(C)C[C@@H]1NC(=O)[C@H](CCCNC(=N)N)NC(=O)[C@H](CCCCN)NC(=O)[C@H](CC(=O)O)NC(=O)[C@H](CCCCN)NC(=O)[C@@H](CO)NC1=O	MMP14 (Homo sapiens, UniProt P50281)	enzyme activity, inhibitor, fluorescence	–	–	> 10 µM
CCCCCCCCCCCCCCCc1ccc(C(F)P(=O)(O)O)cc1 (racemic)	Autotaxin (ENPP2, Homo sapiens, UniProt Q13822)	enzyme activity, inhibitor	–	added: FS-3 1 µM	17.9 µM
CC[C@H](C)[C@H](NC(=O)[C@@H]1CSSC[C@H](NC(=O)[C@H](Cc2ccc(O)cc2)NC(=O)CNC(C)=O)C(=O)N[C@@H](CO)C(=O)N[C@@H](CCCNC(=N)N)C(=O)N[C@@H](CO)C(=O)N[C@@H](Cc2ccc(O)cc2)C(=O)N2CCC[C@H]2C(=O)N2CCC[C@H]2C(=O)N[C@@H](C(C)C)C(=O)N1)C(=O)N1CCC[C@H]1C(=O)N[C@@H](CC(=O)O)C(N)=O	Mannan-binding lectin serine protease 2 (Homo sapiens, UniProt O00187)	C3 deposition, inhibitor, ELISA	100-fold diluted human serum	30 min preincubation	0.303 µM
Cc1ccc(C(C)C)cc1.[Cl][Ru]([Cl])[P](CP(c1ccccc1)c1ccccc1)(c1ccccc1)c1ccccc1	Cathepsin B (CTSB, Homo sapiens, UniProt P07858)	inhibitor	–	10 min preincubation, pH 6, room temperature, added: Z-FR-AMC	143 µM
NC(=S)N/N=C/c1ccccc1O	SOD1 (Homo sapiens, UniProt P00441)	enzyme activity, inhibitor	HeLa	24 h	1.36 µM
O=C(O)Cc1cccc(OC(=O)NCCCCCn2ccc3ccc(F)cc32)c1	Faah (Rattus norvegicus, UniProt P97612)	–	rat brain homogenate	60 min, 37 °C	0.058 µM
CN(C)c1ccc(NC(=O)CCCCCNC(=O)CS)cc1	HDAC2	enzyme activity, inhibitor	–	–	17 µM

Excerpt of the above:
SMILES	target	test	test system	setting	IC50
C[C@@H](NC(=O)[C@@H](N)Cc1ccc(O)cc1)C(=O)NCC(=O)N[C@@H](Cc1ccc(F)cc1)C(=O)Nc1ccccc1NC(=O)[C@H](Cc1ccc(F)cc1)NC(=O)CNC(=O)[C@@H](C)NC(=O)[C@@H](N)Cc1ccc(O)cc1	delta opioid receptor, mouse	vas deferens contraction, agonist	mouse vas deferens	–	0.00066 ± 0.00017 µM
